Assay results pooled from the literature.
Parts stem from different laboratories: compare values within a part only. Positions count from the first letter of the parent shown.

Series 1 — technique: protein-binding microarray; form: double-stranded DNA, one strand shown; matrix: in vitro; tested at: 250 nM; setting: 60-bp whole probe; together with: salmon DNA 0.4 mg/ml; relative to: random background probes; direction: higher = stronger binding
Target: Interferon regulatory factor 7, full length, phosphomimetic (IRF7, Homo sapiens, UniProt Q92985, residues 1-503, S101K/S471D/S472D/S475D/S476D/S477D/S483D/S484D/S487D)
Shared flanks, not repeated: GCCTAGCAC … GTGCTAGGTCTTGATTCGCTTGACGCTGCTG
Construct (chain): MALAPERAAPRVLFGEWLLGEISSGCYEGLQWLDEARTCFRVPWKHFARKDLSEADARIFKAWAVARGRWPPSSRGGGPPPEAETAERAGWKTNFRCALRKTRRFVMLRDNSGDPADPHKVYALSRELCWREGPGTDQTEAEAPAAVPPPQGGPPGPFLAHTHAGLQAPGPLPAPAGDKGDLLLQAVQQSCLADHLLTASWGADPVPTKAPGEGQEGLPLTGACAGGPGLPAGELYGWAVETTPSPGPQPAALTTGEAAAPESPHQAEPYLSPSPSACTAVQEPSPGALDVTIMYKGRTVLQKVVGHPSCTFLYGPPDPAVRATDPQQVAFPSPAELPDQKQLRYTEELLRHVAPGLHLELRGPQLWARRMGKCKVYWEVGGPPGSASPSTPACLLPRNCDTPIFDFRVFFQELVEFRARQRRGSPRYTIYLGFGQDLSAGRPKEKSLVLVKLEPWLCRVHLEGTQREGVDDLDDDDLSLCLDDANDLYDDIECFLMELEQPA
For `TTAGAACTGAGCCTGGATTA`, the log fluorescence was -0.489 z-score.
`TCAAGTTTGTAAATCTTACT` has a log fluorescence of -0.0209 z-score.
The log fluorescence of `CCCCCTTTTATATTGTAAGC` is reported as 0.459 z-score.
For `GGAAATTCCAAGTTCATGGG`, the log fluorescence was 0.403 z-score.
For `CACGGACTGGGACTGGGGAC`, the log fluorescence was -0.434 z-score.
With `TTAGATTTCAGTTTCGCTTA` the log fluorescence was 7.29 z-score.
The log fluorescence of `TCAATGTTCCTTATTTAACT` is reported as 1.33 z-score.
`GACGGTATCGGTATAGGGAC` gave a log fluorescence of 0.96 z-score.
`GACGGTTTCCTTCTCGTGAC` gave a log fluorescence of 2.26 z-score.

Series 2 — technique: protein binding microarray; form: double-stranded DNA, one strand shown; matrix: in vitro; tested at: not given; relative to: not given; direction: higher = stronger binding
Target: Histone acetyltransferase KAT6A, winged helix 1, GST fusion (KAT6A, Homo sapiens, UniProt Q92794, residues 1-85)
Setting: 8-mer, flanks averaged, mean of 2 arrays, mostly near background
Target sequence (chain): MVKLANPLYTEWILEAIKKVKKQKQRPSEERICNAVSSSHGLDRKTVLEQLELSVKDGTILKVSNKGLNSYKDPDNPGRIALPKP
For `AATCGACT`, the E-score was -0.195.
`AATCTTAA` has an E-score of -0.117.
`GTTTAAAA` has an E-score of -0.132.
The E-score of `AGCGCAAT` is reported as 0.218.
`TGCTACCA` gave an E-score of -0.19.
For `ACTTGTTC`, the E-score was -0.114.
The E-score of `CGCGGATA` is reported as 0.331.
The E-score of `AAGCGTAA` is reported as 0.154.
`ACGCAATG` has an E-score of 0.0513.
The E-score of `CCAACTCG` is reported as -0.229.

Series 3 — target: BATF3, bZIP domain (human); technique: DHFR protein complementation; matrix: yeast; relative to: wild-type JUN-FOS pair; direction: higher = stronger binding
Setting: single substitutions, most at no-binding floor
Starting sequence: JUN, bZIP domain (human); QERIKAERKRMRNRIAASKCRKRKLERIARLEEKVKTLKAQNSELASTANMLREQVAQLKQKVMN; partner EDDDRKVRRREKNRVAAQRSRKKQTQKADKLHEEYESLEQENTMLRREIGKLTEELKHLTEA
`V35F` has a binding fitness of 0.0169 natural log.
`A46I` gave a binding fitness of 0.246 natural log.
With `K39T` the binding fitness was 0.208 natural log.
`V56G` gave a binding fitness of -0.313 natural log.

Other studies, line by line
For `PhoQ, residues 284 288 289 292 302 303 ASASEQ`, the fold induction was 11.9 (PhoP, residues 12 14 15 18 19 GHCSL (Escherichia coli, UniProt P23836); Sort-seq, item: YFP reporter; E. coli; PhoQ-PhoP variant library, together with: 10 µM Mg2+; relative to: high Mg2+ state, higher = stronger signaling).

Excerpt of the above (series 1):
The log fluorescence of `CCCCCTTTTATATTGTAAGC` is reported as 0.459 z-score.
For `CACGGACTGGGACTGGGGAC`, the log fluorescence was -0.434 z-score.
`GACGGTTTCCTTCTCGTGAC` gave a log fluorescence of 2.26 z-score.
